Published values gathered from unrelated publications.
Numbered parts are unrelated; each lists some results of a single study. Values joined by “and” are separate records of one study, mostly repeats; a detail may differ.
Chain of UniProt P10721 (whole entry, unmodified, looked up): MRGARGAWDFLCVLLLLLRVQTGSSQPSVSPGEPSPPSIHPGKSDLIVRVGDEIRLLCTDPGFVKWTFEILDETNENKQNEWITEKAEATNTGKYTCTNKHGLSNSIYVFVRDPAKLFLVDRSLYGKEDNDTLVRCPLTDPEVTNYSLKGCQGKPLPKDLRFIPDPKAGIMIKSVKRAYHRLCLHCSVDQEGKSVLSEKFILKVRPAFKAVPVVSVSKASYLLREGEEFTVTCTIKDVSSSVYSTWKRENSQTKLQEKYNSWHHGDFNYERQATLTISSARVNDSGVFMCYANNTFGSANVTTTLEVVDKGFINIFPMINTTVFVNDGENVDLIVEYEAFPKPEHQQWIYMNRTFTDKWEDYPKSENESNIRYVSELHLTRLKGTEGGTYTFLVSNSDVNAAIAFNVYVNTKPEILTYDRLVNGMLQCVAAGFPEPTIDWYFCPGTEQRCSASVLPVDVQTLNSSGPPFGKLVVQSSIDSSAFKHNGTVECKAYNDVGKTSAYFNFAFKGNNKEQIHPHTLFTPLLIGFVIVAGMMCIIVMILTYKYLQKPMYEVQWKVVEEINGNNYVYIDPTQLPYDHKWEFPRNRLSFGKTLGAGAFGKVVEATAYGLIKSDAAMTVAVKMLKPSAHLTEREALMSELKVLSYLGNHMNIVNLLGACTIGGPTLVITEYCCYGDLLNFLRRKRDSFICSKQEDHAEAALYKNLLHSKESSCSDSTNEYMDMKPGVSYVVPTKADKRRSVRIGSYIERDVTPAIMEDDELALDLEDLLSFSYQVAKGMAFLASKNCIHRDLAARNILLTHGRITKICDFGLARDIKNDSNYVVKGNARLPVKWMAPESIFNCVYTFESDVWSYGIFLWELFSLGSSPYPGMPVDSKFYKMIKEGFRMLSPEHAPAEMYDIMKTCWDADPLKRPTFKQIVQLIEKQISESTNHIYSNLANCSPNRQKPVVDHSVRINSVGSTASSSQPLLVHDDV
Chain of UniProt Q8IY84 (whole entry, looked up): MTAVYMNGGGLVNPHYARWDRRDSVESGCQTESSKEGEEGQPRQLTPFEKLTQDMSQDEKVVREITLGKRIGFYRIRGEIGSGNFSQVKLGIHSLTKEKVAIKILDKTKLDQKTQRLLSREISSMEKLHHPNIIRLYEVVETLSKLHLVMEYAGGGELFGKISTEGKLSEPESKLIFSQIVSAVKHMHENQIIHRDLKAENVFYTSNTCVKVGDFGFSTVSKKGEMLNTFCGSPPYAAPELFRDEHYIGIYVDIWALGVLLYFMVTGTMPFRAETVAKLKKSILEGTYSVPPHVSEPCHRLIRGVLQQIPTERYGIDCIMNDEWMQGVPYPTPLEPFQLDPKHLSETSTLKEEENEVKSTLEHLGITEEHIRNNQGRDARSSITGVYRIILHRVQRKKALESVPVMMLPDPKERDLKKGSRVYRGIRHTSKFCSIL
Chain of UniProt Q8NG66 (whole entry, looked up): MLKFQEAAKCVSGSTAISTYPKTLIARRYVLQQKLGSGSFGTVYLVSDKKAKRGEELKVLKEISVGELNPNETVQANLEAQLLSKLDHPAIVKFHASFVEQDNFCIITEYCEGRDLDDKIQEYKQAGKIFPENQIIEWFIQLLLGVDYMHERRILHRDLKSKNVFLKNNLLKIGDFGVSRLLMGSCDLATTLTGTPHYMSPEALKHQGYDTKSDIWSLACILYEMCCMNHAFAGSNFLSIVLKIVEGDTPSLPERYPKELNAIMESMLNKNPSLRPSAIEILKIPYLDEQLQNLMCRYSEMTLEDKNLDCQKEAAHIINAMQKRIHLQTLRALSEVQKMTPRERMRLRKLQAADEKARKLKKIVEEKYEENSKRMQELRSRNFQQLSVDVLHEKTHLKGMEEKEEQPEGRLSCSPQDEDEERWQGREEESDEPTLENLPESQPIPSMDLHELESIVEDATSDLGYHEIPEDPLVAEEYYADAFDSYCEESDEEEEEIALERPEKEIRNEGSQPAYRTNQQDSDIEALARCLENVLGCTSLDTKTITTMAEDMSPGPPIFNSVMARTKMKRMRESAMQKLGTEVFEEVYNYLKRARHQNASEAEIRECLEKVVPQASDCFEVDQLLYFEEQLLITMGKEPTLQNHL
Chain of UniProt P31749 (whole entry, looked up): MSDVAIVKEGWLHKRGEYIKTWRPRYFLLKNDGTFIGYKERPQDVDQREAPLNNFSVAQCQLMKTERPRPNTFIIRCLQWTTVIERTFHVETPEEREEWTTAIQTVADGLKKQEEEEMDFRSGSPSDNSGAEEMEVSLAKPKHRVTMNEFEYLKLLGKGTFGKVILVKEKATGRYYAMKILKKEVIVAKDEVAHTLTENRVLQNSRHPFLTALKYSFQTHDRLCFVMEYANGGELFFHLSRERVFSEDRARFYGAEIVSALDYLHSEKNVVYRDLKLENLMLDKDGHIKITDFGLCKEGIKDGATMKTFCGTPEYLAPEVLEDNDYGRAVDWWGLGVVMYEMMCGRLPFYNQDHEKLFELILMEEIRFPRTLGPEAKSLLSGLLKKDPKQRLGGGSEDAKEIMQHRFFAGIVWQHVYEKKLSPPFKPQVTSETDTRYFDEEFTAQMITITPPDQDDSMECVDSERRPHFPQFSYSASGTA

Block 1
SMILES: COc1ccc2[nH]c3c4[nH]c5ccc(OC)cc5c4c4c(c3c2c1)C(=O)NC4=O
target | assay | setting | remaining binding [%]
NEK9 (Homo sapiens, UniProt Q8TD19) | binding | 1 µM | 100
SRC (Homo sapiens, UniProt P12931) | binding, competition with immobilised ligand | 1 µM | 87
TESK1 (Homo sapiens, UniProt Q15569) | binding, competition with immobilised ligand | 1 µM | 90
PDGFRA (Homo sapiens, UniProt P16234) | DiscoverX cell-free binding | 1000 nM | 11
Tyrosine-protein kinase JAK1, JH1 (JAK1, Homo sapiens, UniProt P23458) | cell-free assay, competition with immobilised ligand | 1 µM | 100
NIM1K (Homo sapiens, UniProt Q8IY84) | binding | 1 µM | 100

Block 2 — effect on: cell-free assay; technique: competition with immobilised ligand; concentration: 1 µM
Compound: CC(=O)Nc1c(C(C)=O)c(=O)n(C)c2nc(-c3ccc(Cl)cc3Cl)c(-c3ccc(Cl)cc3)cc12
target | remaining binding [%]
NEK11 (Homo sapiens, UniProt Q8NG66) | 100
EGFR (Homo sapiens, UniProt P00533, G719S) | 100
Tyrosine-protein kinase ABL1, phosphorylated (ABL1, Homo sapiens, UniProt P00519, Q252H) | 72
KIT (Homo sapiens, UniProt P10721, L576P) | 100
TNK1 (Homo sapiens, UniProt Q13470) | 100
DYRK1A (Homo sapiens, UniProt Q13627) | 100
SNRK (Homo sapiens, UniProt Q9NRH2) | 78
MAP3K14 (Homo sapiens, UniProt Q99558) | 92
EGFR (Homo sapiens, UniProt P00533, del752-759) | 100
CSNK1A1 (Homo sapiens, UniProt P48729) | 100
KIT (Homo sapiens, UniProt P10721, V559D/V654A) | 100
BRSK1 (Homo sapiens, UniProt Q8TDC3) | 85
ROCK1 (Homo sapiens, UniProt Q13464) | 100
KIT (Homo sapiens, UniProt P10721) | 100
DCLK3 (Homo sapiens, UniProt Q9C098) | 100
STK4 (Homo sapiens, UniProt Q13043) | 100
NLK (Homo sapiens, UniProt Q9UBE8) | 100
AKT1 (Homo sapiens, UniProt P31749) | 100
Tyrosine-protein kinase ABL1, non-phosphorylated (ABL1, Homo sapiens, UniProt P00519) | 85
SRMS (Homo sapiens, UniProt Q9H3Y6) | 78
SRPK2 (Homo sapiens, UniProt P78362) | 100
PRKG1 (Homo sapiens, UniProt Q13976) | 100
Ribosomal protein S6 kinase alpha-4, C-terminal kinase domain (RPS6KA4, Homo sapiens, UniProt O75676) | 100
CAMK2A (Homo sapiens, UniProt Q9UQM7) | 100
PIK3CA (Homo sapiens, UniProt P42336, H1047Y) | 100

Block 3 — cell line: mouse MPNST tumor cells; technique: high-content immunofluorescence imaging; measured: nuclear SOX9; concentration: 10 µM; time: 12 h; notes: mean of 2 replicates; reference: DMSO control; reading: higher = more nuclear SOX9
Compound | nuclear SOX9 intensity
O=C(Nc1nncs1)c1cccnc1 | 102 % of DMSO
CC1COc2c(N3CCN(C)CC3)c(F)cc3c(=O)c(C(=O)O)cn1c23 (stereo not shown) | 100 % of DMSO
Cc1ccc(Nc2nccc(N(C)c3ccc4c(C)n(C)nc4c3)n2)cc1S(N)(=O)=O | 131 % of DMSO
COc1cc(C)nc(-n2nc(C)cc2OC)n1 | 107 % of DMSO
CCCCCCCCCCCCCCCc1cccc(OCC(=O)NCCO)c1 | 96 % of DMSO

Block 4 — organism: Sarcocystis neurona; effect on: parasite growth; concentration: concentration not given; notes: first screen; reference: untreated
Structure (SMILES) | log2 fold change
CC(CN1c2ccccc2Sc2ccccc21)N(C)C.Cl (stereo not shown) | -0.31
CN(Cc1cnc2nc(N)nc(N)c2n1)c1ccc(C(=O)N[C@@H](CCC(=O)O)C(=O)O)cc1.O | -0.07
Cl.Cn1c(NCCN(CCO)CCCc2ccc([N+](=O)[O-])cc2)cc(=O)n(C)c1=O | -0.07
C[C@]12C=CC(=O)C=C1CC[C@@H]1[C@@H]2[C@@H](O)C[C@@]2(C)[C@H]1CC[C@]2(O)C(=O)COC(=O)CCC(=O)[O-].[Na+] | 0.0373

Block 5 — organism: Leishmania donovani; strain: DD8
Compound: c1ccc(Oc2ccc(Nc3c4c(nc5ccccc35)CCC4)cc2)cc1
assay | test system | setting | inhibition
parasite killing | promastigotes | 66.66 µM, 48 h | 100%
parasite killing | intracellular amastigotes | 2 µM, 48 h | 37% and 53%
parasite killing | intracellular amastigotes | 0.4 µM, 96 h | 53% and 52% and 54%
parasite killing | promastigotes | 1.66 µM, 96 h | 84% and 81% and 80%
parasite viability, resazurin | promastigotes | 0.0066 µM | -1% and -5% and -4%
parasite killing | promastigotes | 6.66 µM, 96 h | 100% and 99%

Block 6 — technique: phase 2a trial
SMILES: CC(C)n1cnc(-c2ccc(F)cc2)c1-c1ncc(C(=O)Nc2ccc(N3CCN(C)CC3)cc2)[nH]1
test system | setting | patients with TEAE
patients with idiopathic pulmonary fibrosis | 30 mg once daily, nervous system disorders SOC, grade 5 | 0%
idiopathic pulmonary fibrosis patients | oral, 30 mg once daily, ESR increased, grade 3 | 0%
idiopathic pulmonary fibrosis patients | oral, 30 mg once daily, blood/lymphatic disorders, grade 5 | 0%
patients with idiopathic pulmonary fibrosis | dose not given, nervous system disorders SOC, grade 2, all arms | 0%

Block 7 — effect on: enzyme activity; action: inhibitor; concentration: 77 µM; reference: untreated
Target: DNA polymerase theta, ATPase domain (POLQ, Homo sapiens, UniProt O75417)
Chain of UniProt O75417 (whole entry, unmodified, looked up): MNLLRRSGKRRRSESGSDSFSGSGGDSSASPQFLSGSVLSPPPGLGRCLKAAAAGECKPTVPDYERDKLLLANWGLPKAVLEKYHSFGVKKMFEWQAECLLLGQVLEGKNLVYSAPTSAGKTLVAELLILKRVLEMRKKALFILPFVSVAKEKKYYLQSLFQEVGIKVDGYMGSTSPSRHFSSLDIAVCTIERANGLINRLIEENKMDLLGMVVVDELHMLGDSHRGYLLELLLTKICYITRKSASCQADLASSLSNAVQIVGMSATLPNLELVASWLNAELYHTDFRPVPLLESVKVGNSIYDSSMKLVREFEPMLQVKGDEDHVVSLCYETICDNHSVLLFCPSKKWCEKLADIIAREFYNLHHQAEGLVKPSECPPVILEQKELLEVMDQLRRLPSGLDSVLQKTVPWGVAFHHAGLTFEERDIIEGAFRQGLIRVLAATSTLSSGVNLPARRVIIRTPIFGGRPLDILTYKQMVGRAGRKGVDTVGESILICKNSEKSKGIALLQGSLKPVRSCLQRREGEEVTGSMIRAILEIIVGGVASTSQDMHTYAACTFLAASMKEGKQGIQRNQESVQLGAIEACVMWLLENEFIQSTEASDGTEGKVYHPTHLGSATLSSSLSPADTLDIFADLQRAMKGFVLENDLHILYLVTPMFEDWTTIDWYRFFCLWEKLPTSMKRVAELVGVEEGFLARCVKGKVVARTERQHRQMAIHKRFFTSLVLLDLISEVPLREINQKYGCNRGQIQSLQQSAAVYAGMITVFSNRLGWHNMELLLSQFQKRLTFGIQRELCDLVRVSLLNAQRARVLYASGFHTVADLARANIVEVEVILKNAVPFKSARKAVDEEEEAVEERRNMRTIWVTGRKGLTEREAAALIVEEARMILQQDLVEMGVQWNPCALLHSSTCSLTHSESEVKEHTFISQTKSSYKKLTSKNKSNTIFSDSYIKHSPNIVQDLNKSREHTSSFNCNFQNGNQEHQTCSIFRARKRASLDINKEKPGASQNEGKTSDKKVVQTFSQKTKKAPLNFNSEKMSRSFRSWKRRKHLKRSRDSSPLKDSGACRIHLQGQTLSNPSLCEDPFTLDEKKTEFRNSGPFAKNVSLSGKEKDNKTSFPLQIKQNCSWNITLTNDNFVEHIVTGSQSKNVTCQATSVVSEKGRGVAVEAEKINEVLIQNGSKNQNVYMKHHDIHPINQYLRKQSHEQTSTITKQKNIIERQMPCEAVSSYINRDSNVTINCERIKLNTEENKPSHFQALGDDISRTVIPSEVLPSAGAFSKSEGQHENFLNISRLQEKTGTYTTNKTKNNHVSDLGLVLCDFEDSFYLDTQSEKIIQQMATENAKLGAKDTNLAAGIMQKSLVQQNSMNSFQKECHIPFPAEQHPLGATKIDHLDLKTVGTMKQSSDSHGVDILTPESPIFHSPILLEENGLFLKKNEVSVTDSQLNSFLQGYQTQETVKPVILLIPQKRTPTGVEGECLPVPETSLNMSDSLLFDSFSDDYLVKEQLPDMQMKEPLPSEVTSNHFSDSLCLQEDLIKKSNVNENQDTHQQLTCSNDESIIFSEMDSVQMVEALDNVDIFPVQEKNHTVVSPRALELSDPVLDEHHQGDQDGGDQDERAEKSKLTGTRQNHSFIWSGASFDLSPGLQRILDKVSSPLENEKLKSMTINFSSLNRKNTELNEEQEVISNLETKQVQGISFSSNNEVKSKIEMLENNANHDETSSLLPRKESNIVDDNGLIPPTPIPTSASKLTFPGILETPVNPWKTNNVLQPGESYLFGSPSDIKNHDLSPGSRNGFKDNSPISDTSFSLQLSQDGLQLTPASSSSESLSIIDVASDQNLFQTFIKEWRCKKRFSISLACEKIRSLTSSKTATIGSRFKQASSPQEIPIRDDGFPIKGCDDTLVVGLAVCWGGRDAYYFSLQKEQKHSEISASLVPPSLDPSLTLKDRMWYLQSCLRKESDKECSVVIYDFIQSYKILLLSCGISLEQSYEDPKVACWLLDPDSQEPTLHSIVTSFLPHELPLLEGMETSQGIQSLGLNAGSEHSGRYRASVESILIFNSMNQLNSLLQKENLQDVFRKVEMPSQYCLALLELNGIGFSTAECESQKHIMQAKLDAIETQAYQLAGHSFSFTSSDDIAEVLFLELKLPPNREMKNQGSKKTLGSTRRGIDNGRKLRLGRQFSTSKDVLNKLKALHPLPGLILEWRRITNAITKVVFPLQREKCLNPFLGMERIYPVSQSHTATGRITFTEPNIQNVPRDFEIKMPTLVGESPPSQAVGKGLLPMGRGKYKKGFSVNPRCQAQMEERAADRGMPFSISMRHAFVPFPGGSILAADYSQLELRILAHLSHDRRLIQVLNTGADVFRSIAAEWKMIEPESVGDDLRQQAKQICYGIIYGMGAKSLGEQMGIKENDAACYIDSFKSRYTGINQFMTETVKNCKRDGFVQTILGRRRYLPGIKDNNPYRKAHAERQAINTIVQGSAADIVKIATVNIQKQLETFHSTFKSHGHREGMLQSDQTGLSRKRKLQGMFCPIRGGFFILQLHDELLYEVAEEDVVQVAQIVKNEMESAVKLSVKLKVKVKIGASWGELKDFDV
SMILES | remaining activity
C[C@H](CCC(=O)O)[C@H]1CC[C@H]2[C@@H]3CC[C@@H]4C[C@H](O)CC[C@]4(C)[C@H]3CC[C@]12C | 86.7% and 94.3%
O=c1cc(-c2ccccc2)oc2cc(O)cc(O)c12 | 89.4% and 86.6%
CCCCCCCCCCCCCCC[C@H](O)[C@H](N)CO (racemic) | 86%
N=C(N)NC(=N)N1CCOCC1 | 96.5%

Mixed results
Compound | cell line | assay | setting | scale | endpoint | result
O=C(COc1ccc(Cl)cc1)NC1CCC(NC(=O)COc2ccc(Cl)cc2)CC1 (stereo not shown) | HEK293T ATF4-firefly luciferase reporter | integrated stress response, measured: ATF4 | concentration not given | reference: DMSO | reporter signal | 72.7% and 67% and 61.8% and 73.4% and 88% and 76.7% and 71.2%

Some of these lines once more (block 6):
test system | setting | patients with TEAE
patients with idiopathic pulmonary fibrosis | dose not given, nervous system disorders SOC, grade 2, all arms | 0%
idiopathic pulmonary fibrosis patients | oral, 30 mg once daily, blood/lymphatic disorders, grade 5 | 0%
idiopathic pulmonary fibrosis patients | oral, 30 mg once daily, ESR increased, grade 3 | 0%
patients with idiopathic pulmonary fibrosis | 30 mg once daily, nervous system disorders SOC, grade 5 | 0%
